# Assay results from different studies.
# A part holds a random share of what one study measured. Substitutions count along the parent as printed.

# Set 1 — technique: protein-binding microarray; molecule type: double-stranded DNA, one strand shown; medium: in vitro; concentration: not given; direction: higher = stronger binding
# Target: Myc proto-oncogene protein, bHLH-zipper, MAX partner unstated (MYC, Homo sapiens, UniProt P01106, residues 368-449)
# Chain of UniProt P01106 (368-449, looked up): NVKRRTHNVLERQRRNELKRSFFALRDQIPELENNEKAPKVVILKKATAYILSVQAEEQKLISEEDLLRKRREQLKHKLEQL
# Setting: k-mer, scored over probes, only values ≥0.25
Sequence,E-score
CACGCTTA,0.344
GCACAGCC,0.289
AAGCGTGT,0.357
AGGTGGCG,0.352
CATGCAGG,0.391
CATGTTGA,0.299
ACGCGAGT,0.282
CCTCACGC,0.256
CGCGTGGA,0.449
ACATGTTG,0.352
GCGTGTCC,0.414
CAATGCGG,0.28
ACGGCGTG,0.432
CACCTGCC,0.29
ATCACACG,0.37
AATCACGT,0.276

# Set 2 — technique: RNA Bind-n-Seq; molecule type: RNA; medium: in vitro; concentration: 365 nM; reference: no-protein control; direction: higher = stronger binding
# Target: RNA binding protein fox-1 homolog 2, RRM domain, GST-SBP tag (RBFOX2, Homo sapiens, UniProt O43251-10, residues 100-194)
# Setting: natural RNA segment, single round, ends assumed
# Construct (chain): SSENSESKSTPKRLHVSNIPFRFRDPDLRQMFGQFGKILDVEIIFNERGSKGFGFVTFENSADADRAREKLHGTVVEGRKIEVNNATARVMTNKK
Sequence,RBNS enrichment (R)
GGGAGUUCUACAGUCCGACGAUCUAUGUCCCUGUCUGGGGGGCAGGAGGAAUCUGCCAAAGACCAACAGUCUUACUUUAUCUUACUAUACUUCACAAAGGUUCUAAAAUGUGAAGAGUUUACUUGGAUUGCAGUGGAAUUCUCGGGUGCCAA,0.387
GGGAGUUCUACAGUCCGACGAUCCCCAGGCCCCAAUGCUUGUGUGUGGACCAGCGGCUGCAGCCUUCUAGCCCCUCCUCCCCGCGAGACUCUCAGGCUGAGGUCGGCAAGCCGUGGCUCCCCCACACACCGUGUGGAAUUCUCGGGUGCCAA,0.272
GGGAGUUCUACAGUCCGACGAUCGCUUGAAUUUCUCCCCAGAAAAUGGGUUUUUCUUUUCUAUUGCAUAGUCAGGCUGCAAAUUUCCAAACUUUUAUGCUUUGCUUCCCUUAUUUAUAAGGGAAUGCCUUUAAUGGAAUUCUCGGGUGCCAA,0.499
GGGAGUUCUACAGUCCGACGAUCCGGCUGCAAGGAGUCUGCAGUGGUAACAGCUUCUCUCUAGCCUGGCUGGCUUUGGUAGGCAAAAGUGAACUUGGAAGUCACAGUGGGAUCAGAGGGGUGUAGGUUGCGAUUGGAAUUCUCGGGUGCCAA,0.634
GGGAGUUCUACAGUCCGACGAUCAAGUUAAAAUUUAAGAUAAGGUUUAAAAAGCUUUAUUCCUGUUUACAAUUUGGGAUGAGAAGCAGGCUUCGUUUUAAGUUUAUUGAAAACUGGCUCAGAUGUUUAUAAGUUGGAAUUCUCGGGUGCCAA,0.6
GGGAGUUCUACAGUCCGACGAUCUUGCCUCCCCCGACCGCCAUGGAGGGGGCAGCCCGGCACAGCUGCUGGGAGCCCUUGUGUGUCUGGUCACACUUUUUAGGCGUCACGCCAAAGGCCAGCCUCCUGGCCCCUGGAAUUCUCGGGUGCCAA,0.305
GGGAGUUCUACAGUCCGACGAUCGGCGAGCGGGUAGGCCCAAGGCUAUUGUCGUCGCUGCUGCCAUGGCUUUUUCAUUGAGGGCCUAAAGUAAUCGCGCUAAGAAUAAAGGGAAAACGGCGUCGCCCUCAUUUUGGAAUUCUCGGGUGCCAA,0.465
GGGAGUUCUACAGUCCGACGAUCGGAACUCAUUUCCUCCUCUAUCCCCAGCCCUUCUCCUAACUAUGGUGAUAACCAGGGCCAUAGAAGACCUUUUCUCUCUUACCUUUCUCUGAUAGGAUCGUGUCCUUCAGUGGAAUUCUCGGGUGCCAA,0.297
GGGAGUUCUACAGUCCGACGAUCCAAAGGACAUCCACAUCAGUUGGAAGACUUUGAGUUUUGUUCUUAGGAAACCCACUUUAGUUGAAUGUGUUAAGUGAAAUACUUGUACUUCCCUCCCCCUCUGUCAACUGUGGAAUUCUCGGGUGCCAA,0.792
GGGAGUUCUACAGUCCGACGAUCUCUAGACUGGUCUCAUCUCCAUUGCCUUAAUGCCAGGUGGCCCAGGAGUACCCAUGCACAGCAGCUGUGGGGUGUGGGCAUCUUCAGGUGGUGUUCUGGUAAAAUUGUUAUGGAAUUCUCGGGUGCCAA,0.461
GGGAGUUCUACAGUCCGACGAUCGGACCGUGUAGAUAUAACUGGAUAUACGGAUUUUUCUCUUUGUGCAGGCUUCUUAUGCCGUUGGUAUACAGGGCAGGAAAGAGAGGAAUAAAGGGAGAGAGCAGUGUGGAUGGAAUUCUCGGGUGCCAA,0.468
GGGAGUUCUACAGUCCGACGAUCUGCUCACACUUUCAUAGCGCUUGCUACGUGACAAGUACCGCUGUAAAUAAAUGCCUCAUGAAAACCACUUGCUUGCUCUUUGUAAGGACCCCGUGAAAGAUGCGCUGGUUUGGAAUUCUCGGGUGCCAA,2.36

# Set 3 — technique: protein binding microarray; molecule type: double-stranded DNA, one strand shown; medium: in vitro; concentration: not given; reference: not given; direction: higher = stronger binding
# Target: Histone acetyltransferase KAT6A, winged helix 1, GST fusion (KAT6A, Homo sapiens, UniProt Q92794, residues 1-85)
# Setting: 8-mer, flanks averaged, mean of 2 arrays, mostly near background
# Target sequence (chain): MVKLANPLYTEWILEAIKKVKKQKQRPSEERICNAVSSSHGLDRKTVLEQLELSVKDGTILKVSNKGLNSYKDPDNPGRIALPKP
Sequence,E-score
CGCACTAC,0.223
ATACTAAT,-0.112
AAACCTAG,-0.109
AGTCGCCC,0.0404
GCTCGTAA,-0.0841
CACGTGCG,0.295
AGTCTAGG,-0.0967
AGCCGGCA,0.351
GCCAACGC,0.194
AAGCTGCG,0.0102
ATGCGTGG,0.0535
AAATCACC,0.0163
ATATAGGC,-0.0194
TAAAGCGA,0.0382
GCAAGGGC,0.0701
ACTGCAAA,-0.195
GATTTGTA,-0.154
GGATTGAA,-0.169
AGACCGAT,0.0567
ACAATACA,-0.122
CACTTCTG,-0.0912
AGGTCCAC,-0.138
CCTGTTTC,-0.239
AATATCAA,-0.18
ACCTAATC,-0.00877

# Set 4 — technique: protein-binding microarray; molecule type: double-stranded DNA, one strand shown; medium: in vitro; concentration: 250 nM; setting: 60-bp whole probe; together with: salmon DNA 0.4 mg/ml; reference: random background probes; direction: higher = stronger binding; all sequences stand within: GCCTAGCAC … GTCTTGATTCGCTTGACGCTGCTG
# Target: Interferon regulatory factor 5, full length, phosphomimetic (IRF5, Homo sapiens, UniProt Q13568-2, residues 1-514, K96S/S451D/S453D/S456D/S462D)
Sequence,log fluorescence [z-score]
GACGAACTGAGACTGGAGAGGTGCTAG,-0.598
TCATACCTGTATATCTTACTGTGCTAG,0.422
TTAGATATCAGTATCGATCAGTGCTAG,7.16
TCACACCTCTAGACTCTAACTGTGCTA,0.396
TTAGGACTCGACACTGGGTTAGTGCTA,-0.136
GACGATTTCGGGTTCCGAGACGTGCTA,3.42
TTAGATCGCAGTATCGATTAGTGCTAG,5.74
TTAGGATTCGGTTTCGGTTAGTGCTAG,9.36
CAGGGGCTGCCTGGATGCCGGTGCTAG,-0.855
GACGGTATCGGGTATCGTGACGTGCTA,2.8
TTAGGTCTCGGTCGCGGTTAGTGCTAG,0.45
TTAGGTTCCGGTTGCGGTTAGTGCTAG,2.24
TTAGGACTCGGTTTCGGTTAGTGCTAG,8.59
TTATGTCTCGGACTGGGTTAGTGCTAG,0.00824
TGCTTTCTCCCAAGTCTTGTTGTGCTA,3.01
GACGAATTGAGTTTCGAGACGTGCTAG,5.1
TCACTTTCCCAGCCTGGGACTGTGCTA,0.542
TTGAGGTTTTCTCTGGTTCTGTGCTAG,0.45
GACGAACTGAGACGGGAGACGTGCTAG,-0.382
TTCATTTACATTTCCAATACGTGCTAG,1.07
GACGATATCGAGTTTCGAGACGTGCTA,5.17
AGCTCTTTCGTTACTTCCTCGTGCTAG,5.72
GACGGTATCGACTATCGTGACGTGCTA,2.91
TACGGTTTCGGACTGGGGACGTGCTAG,3.92
TTAGGAATGGGGTATCGGTTAGTGCTA,2.66

# Set 5 — target: CCNB3, cyclin fold, Cln2 fusion (human); technique: yeast growth competition, sequencing; medium: yeast; setting: weak parent motif; reference: not given; direction: higher = stronger binding
# Parent: SAMHD1 docking peptide (human); ASKSRVQLFKDDP
Variant,normalised enrichment score
D11C,0.392
K10I,-0.0899
S4G,-0.0876
S2Q,-0.215
S2V,0.0676
F9T,-0.181
D12Y,0.626
S4N,-0.131
S2E,0.0963
L8H,-0.33
V6C,-0.00561
V6L,-0.173
K3M,-0.0242
D12I,0.135
K10V,-0.237
L8M,-0.00473
D11K,0.576
V6W,0.101
S2M,-0.0971
S4Y,-0.242
S2C,-0.139
D12R,-0.0779
R5V,-0.13
V6Q,-1.01
R5S,-0.409

# Excerpt of the above (set 1):
Sequence,E-score
AAGCGTGT,0.357
AGGTGGCG,0.352
CATGCAGG,0.391
CATGTTGA,0.299
ACGCGAGT,0.282
CCTCACGC,0.256
CGCGTGGA,0.449
ACATGTTG,0.352
GCGTGTCC,0.414
CAATGCGG,0.28
ACGGCGTG,0.432
CACCTGCC,0.29
